Assay results pooled from the literature.
Compare with care: the assays were run in different laboratories.
DRD3: D(3) dopamine receptor (DRD3, Homo sapiens, UniProt P35462)
UniProt P35462, sequence (whole entry, looked up): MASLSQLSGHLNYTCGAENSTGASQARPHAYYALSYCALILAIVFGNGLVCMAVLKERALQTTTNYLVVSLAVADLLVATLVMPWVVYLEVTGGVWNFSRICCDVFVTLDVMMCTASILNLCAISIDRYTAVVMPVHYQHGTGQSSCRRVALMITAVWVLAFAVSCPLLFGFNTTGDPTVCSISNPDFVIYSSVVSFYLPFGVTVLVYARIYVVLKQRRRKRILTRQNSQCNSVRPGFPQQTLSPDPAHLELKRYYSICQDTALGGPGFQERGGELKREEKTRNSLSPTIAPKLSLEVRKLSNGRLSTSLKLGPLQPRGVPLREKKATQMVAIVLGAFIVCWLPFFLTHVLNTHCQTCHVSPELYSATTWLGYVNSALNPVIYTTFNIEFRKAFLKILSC
ADRA2C: Alpha-2C adrenergic receptor (ADRA2C, Homo sapiens, UniProt P18825)
UniProt P18825, sequence (whole entry, looked up): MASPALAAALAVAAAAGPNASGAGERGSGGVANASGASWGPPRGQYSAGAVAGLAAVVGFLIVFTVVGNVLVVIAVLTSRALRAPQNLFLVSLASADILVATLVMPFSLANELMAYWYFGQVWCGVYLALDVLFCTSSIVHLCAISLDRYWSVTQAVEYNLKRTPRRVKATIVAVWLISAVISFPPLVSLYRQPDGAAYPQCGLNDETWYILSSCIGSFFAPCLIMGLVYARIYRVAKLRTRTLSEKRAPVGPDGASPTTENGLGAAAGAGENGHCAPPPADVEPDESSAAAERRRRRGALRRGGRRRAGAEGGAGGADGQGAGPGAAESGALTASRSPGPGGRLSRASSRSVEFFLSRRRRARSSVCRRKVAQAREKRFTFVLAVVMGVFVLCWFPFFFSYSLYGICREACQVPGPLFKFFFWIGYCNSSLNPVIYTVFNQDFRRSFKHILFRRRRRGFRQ
ADRA2B: Alpha-2B adrenergic receptor (ADRA2B, Homo sapiens, UniProt P18089)
UniProt P18089, sequence (whole entry, looked up): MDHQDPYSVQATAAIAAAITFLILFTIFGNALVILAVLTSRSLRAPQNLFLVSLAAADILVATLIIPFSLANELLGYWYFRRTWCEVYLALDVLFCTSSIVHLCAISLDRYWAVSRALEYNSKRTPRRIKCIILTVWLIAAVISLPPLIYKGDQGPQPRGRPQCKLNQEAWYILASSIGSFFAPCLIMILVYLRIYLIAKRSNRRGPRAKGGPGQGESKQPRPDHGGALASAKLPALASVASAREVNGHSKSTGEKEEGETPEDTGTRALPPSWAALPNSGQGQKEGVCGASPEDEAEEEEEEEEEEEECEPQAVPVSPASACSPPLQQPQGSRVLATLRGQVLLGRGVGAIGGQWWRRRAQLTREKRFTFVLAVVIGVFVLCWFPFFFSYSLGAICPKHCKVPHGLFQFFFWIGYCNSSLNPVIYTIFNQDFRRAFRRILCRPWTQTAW
SCTR: Secretin receptor (SCTR, Homo sapiens, UniProt P47872)
UniProt P47872, sequence (whole entry, looked up): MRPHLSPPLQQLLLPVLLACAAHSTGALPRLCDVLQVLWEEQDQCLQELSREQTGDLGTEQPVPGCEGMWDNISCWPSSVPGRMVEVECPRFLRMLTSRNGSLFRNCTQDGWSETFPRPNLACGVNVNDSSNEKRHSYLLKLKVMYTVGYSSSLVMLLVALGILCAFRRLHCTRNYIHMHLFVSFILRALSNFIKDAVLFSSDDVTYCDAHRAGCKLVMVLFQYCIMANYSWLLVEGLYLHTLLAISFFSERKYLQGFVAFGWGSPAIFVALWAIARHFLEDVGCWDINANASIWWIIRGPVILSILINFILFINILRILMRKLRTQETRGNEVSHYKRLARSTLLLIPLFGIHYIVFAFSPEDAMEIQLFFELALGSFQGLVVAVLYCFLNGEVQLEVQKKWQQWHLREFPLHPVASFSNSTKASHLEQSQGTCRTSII
HDAC8: Histone deacetylase 8 (HDAC8, Homo sapiens, UniProt Q9BY41)
UniProt Q9BY41, sequence (whole entry, looked up): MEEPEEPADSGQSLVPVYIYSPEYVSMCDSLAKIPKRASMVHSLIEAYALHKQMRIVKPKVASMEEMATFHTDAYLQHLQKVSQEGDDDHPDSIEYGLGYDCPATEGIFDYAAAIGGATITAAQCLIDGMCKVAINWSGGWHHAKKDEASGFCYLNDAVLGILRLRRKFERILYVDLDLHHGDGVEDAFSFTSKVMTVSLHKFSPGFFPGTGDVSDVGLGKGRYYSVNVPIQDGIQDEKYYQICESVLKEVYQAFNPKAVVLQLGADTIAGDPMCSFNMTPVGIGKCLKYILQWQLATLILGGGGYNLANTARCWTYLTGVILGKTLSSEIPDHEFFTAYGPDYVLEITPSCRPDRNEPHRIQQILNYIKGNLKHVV
UniProt P28223, sequence (whole entry, looked up): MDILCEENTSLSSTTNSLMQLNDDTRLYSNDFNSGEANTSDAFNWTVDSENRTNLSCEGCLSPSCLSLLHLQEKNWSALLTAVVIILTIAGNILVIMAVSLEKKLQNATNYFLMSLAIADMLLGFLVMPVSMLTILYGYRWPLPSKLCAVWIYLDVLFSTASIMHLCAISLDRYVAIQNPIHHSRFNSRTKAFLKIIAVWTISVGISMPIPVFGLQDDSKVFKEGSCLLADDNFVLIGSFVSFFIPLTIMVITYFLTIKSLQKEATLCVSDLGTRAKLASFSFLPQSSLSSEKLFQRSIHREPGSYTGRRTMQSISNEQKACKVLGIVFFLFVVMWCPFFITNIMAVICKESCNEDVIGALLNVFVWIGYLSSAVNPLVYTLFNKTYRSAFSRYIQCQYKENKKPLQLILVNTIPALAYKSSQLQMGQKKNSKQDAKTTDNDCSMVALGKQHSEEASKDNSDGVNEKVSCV
UniProt P10721, sequence (whole entry, unmodified, looked up): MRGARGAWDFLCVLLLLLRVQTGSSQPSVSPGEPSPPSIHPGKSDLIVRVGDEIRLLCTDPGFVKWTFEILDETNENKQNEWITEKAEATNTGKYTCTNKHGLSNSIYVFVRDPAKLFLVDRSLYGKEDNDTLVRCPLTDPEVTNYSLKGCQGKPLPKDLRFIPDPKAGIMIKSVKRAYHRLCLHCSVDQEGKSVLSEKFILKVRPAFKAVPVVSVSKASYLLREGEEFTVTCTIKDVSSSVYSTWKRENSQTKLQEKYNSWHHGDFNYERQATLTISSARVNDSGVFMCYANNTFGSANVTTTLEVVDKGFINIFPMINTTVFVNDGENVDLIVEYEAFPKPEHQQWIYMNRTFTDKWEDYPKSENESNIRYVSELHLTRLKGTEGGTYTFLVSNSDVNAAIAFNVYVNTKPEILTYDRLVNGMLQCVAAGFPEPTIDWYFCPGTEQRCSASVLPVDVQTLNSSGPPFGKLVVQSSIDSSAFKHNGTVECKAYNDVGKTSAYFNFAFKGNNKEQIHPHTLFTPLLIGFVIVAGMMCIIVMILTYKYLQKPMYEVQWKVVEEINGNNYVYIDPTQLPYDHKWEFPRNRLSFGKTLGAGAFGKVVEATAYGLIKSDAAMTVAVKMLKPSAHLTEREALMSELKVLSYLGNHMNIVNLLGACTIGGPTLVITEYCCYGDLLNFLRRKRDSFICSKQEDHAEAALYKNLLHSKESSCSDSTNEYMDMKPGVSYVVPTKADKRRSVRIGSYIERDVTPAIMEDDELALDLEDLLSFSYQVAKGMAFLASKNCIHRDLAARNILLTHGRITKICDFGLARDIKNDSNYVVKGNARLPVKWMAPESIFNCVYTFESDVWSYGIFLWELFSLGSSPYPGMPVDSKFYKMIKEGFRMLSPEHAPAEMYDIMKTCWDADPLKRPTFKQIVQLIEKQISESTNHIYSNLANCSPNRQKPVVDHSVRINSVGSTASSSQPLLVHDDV
UniProt Q9UBN7, sequence (whole entry, looked up): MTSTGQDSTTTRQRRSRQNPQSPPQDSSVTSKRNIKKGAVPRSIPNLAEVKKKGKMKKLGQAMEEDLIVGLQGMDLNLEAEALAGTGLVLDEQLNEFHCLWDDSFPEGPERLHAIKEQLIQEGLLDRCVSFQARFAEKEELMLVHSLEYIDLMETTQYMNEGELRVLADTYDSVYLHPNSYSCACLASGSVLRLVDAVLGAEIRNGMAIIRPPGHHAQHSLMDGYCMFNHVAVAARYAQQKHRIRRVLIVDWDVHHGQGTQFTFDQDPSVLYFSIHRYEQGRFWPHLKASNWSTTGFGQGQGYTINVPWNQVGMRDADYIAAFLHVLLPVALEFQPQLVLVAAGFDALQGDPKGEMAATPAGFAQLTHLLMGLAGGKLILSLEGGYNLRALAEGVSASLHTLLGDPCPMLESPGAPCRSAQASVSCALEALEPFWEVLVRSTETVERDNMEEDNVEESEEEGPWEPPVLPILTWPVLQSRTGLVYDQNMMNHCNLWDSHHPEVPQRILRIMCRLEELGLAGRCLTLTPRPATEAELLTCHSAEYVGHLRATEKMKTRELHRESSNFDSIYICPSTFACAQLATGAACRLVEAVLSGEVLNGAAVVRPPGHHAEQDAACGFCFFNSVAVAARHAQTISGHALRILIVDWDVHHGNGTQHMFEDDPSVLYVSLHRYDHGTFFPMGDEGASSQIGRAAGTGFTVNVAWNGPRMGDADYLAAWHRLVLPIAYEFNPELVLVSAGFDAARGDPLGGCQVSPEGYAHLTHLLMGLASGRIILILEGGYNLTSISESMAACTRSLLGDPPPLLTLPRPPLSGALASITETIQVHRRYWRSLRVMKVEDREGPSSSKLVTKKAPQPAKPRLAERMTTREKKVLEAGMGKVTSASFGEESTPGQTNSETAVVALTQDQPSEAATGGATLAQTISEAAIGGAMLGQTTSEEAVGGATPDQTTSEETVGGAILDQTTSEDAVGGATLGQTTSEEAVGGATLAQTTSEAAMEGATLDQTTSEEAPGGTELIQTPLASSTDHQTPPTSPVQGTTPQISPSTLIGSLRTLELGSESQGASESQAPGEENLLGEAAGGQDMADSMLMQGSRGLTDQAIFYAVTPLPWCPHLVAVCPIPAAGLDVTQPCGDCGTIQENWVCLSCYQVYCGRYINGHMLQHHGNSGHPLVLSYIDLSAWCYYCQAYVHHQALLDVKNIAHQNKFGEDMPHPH

CCCN(O)N=Nc1ccc(S(=O)(=O)Nc2cc(C)on2)cc1
inhibition (ABTS scavenging; 240 µg/mL): 33.8%

Cc1cc([C@@H](C)Nc2ccccc2C(=O)O)c2nc(N3CCC(F)(F)CC3)c(C#N)c(=O)n2c1
remaining binding (KIT (Homo sapiens, UniProt P10721, D816V); binding, competition with immobilised ligand; 10 µM): 100%

Cc1[nH]c(C)c(S(=O)(=O)Nc2ccc(C(F)(F)F)c(Cl)c2)c1C(=O)N1CC(F)(F)C(F)(F)C1
IC50 (DRD3; β-arrestin recruitment, antagonist): 21 µM

Cc1cc(Oc2ncccc2CN2CCN(Cc3ccccc3Cl)CC2)ccc1-c1c(C)c(=O)[nH]c(=O)n1C
Ki (ADRA2C; ligand displacement, radioligand): 0.0254 µM

Cc1[nH]c(C)c(S(=O)(=O)Nc2ccc(C(F)(F)F)c(Cl)c2)c1C(=O)N1CCC(C#N)C1 (stereo not shown)
IC50 (DRD3; β-arrestin recruitment, antagonist): 15 µM

COc1ccccc1N1CCN(Cc2cccnc2Oc2ccc(-c3c(C)c(=O)[nH]c(=O)n3C)c(C)c2)CC1
Ki (ADRA2B; ligand displacement, radioligand): 0.116 µM

CC1=C(O)C(=O)OC1C (stereo not shown)
EC50 (OR8D1 (Homo sapiens, UniProt Q8WZ84, K295A); cAMP, agonist, luciferase): 3490 nM

CCC1=NN(/C(=N/c2nnc(CC)s2)Nc2ccc(C)c(C)c2)C(c2cc(F)c(F)c(F)c2)S1 (stereo not shown)
EC50 (SCTR; cAMP, agonist, TR-FRET): 100 nM

COc1cccc(OC)c1-c1cc(C(=O)NC2(C(=O)O)C3CC4CC(C3)CC2C4)nn1-c1ccc(C(=O)N(C)CCCN(C)CCCN(C)C(=O)CN2CCN(CC(=O)[O-])CCN(CC(=O)[O-])CCN(CC(=O)[O-])CC2)cc1C(C)C.[177Lu+3] (stereo not shown)
tracer uptake (HT-29 tumour model; host not given, blood; 4 h, tumour-bearing): 14 %ID/g

Cc1cc(Oc2ncccc2CN2CCN(c3ccc(F)c(F)c3)CC2)ccc1-c1c(C)c(=O)[nH]c(=O)n1C
Ki (ADRA2B; ligand displacement, radioligand): 0.283 µM

COc1cc2ncnc(Nc3ccc(Oc4ccccc4)cc3)c2cc1OC
AC50 (SMUG1 (Homo sapiens, UniProt Q53HV7); enzyme activity, activator, fluorescence): 24 µM

Cc1cc(C)c(OS(=O)(=O)Oc2cccc(C(=O)NO)c2)c(C)c1
Ki (HDAC6 (Homo sapiens, UniProt Q9UBN7); enzyme activity, inhibitor, fluorescence): 0.248 µM

Cc1[nH]c(C)c(S(=O)(=O)Nc2cc(Cl)cc(C(F)(F)F)c2)c1C(=O)N1CCC(F)(F)C1
IC50 (DRD3; G protein activation, antagonist, BRET): 12 µM

COc1ccc(OS(=O)(=O)Oc2cccc(C(=O)NO)c2)cc1OC
Ki (HDAC1 (Homo sapiens, UniProt Q13547); enzyme activity, inhibitor, fluorescence): 0.504 µM

N#C[C@@]12C[C@@H]1[C@@H](n1cnc3c(N[C@H](C4CCC4)C4CC4)nc(I)nc31)[C@H](O)[C@@H]2O
Kb (HTR2A (Homo sapiens, UniProt P28223); calcium signal, antagonist): > 10000 nM

CCN(O)N=Nc1ccc(S(=O)(=O)Nc2onc(C)c2C)cc1
inhibition (ABTS scavenging; 120 µg/mL): 39.1%

Cc1cnc(-c2ccc(-c3ccc(NC(=O)Nc4c(F)cc(F)cc4F)cc3F)c3c2C(=O)NC3)[nH]1
Kd (MAP2K3 (Homo sapiens, UniProt P46734); binding, competition with immobilised ligand): 5.8 nM

CCCCC(=O)Nc1ccc(-c2ccc3ncn(CCC)c(=O)c3c2)cn1
remaining binding (EGFR (Homo sapiens, UniProt P00533, G719C); binding, competition with immobilised ligand; 0.5 µM): 100%

COc1ccc(N2CCN(Cc3cccnc3Oc3ccc(-c4c(C)c(=O)[nH]c(=O)n4C)c(C)c3)CC2)cc1
Ki (ADRA2B; ligand displacement, radioligand): 0.316 µM

CC(C)c1cccc(OS(=O)(=O)Oc2cc(F)cc(C(=O)NO)c2)c1
Ki (HDAC8; enzyme activity, inhibitor, fluorescence): 2.32 µM

CCOc1c(Br)cc(C(=O)Nc2ccc(C(=O)O)cc2)cc1C(=O)c1ccc(C)cc1
EC50 (RARB (Homo sapiens, UniProt P10826); reporter gene, antagonist, luciferase): > 5000 nM

O=C(NO)c1cccc(OS(=O)(=O)Oc2ccc(-c3cccc(C(F)(F)F)c3)cc2)c1
Ki (HDAC8; enzyme activity, inhibitor, fluorescence): 1.04 µM

CCc1ccc(NS(=O)(=O)c2c(C)[nH]c(C)c2C(=O)N2CCCC2)cc1Cl
IC50 (DRD3; G protein activation, antagonist, BRET): 6.4 µM

COc1cc(-c2cncc3c2CN(C)Cc2cc(N4CCNCC4)ccc2-3)cc(OC)c1OC
remaining activity (PRKG1 (Homo sapiens, UniProt Q13976); enzyme activity, inhibitor; 1 µM): 96%

O=C(NO)c1cncc(OS(=O)(=O)Oc2ccc3ccccc3c2)c1
Ki (HDAC8; enzyme activity, inhibitor, fluorescence): 0.276 µM

Cc1ccc(N2CCN(Cc3cccnc3Oc3ccc(-c4c(C)c(=O)[nH]c(=O)n4C)c(C)c3)CC2)cc1C
Ki (ADRA2C; ligand displacement, radioligand): 0.108 µM

C1=C/COCc2cc(ccc2OCCN2CCCC2)Nc2nccc(n2)-c2cccc(c2)COC/1
remaining binding (MET (Homo sapiens, UniProt P08581, M1250T); binding; 0.1 µM): 97%

CC1=NN(/C(=N/c2nnc(C)s2)Nc2ccc(C)c(C)c2)C(c2ccc(F)c(C(F)(F)F)c2)S1 (stereo not shown)
EC50 (SCTR; cAMP, agonist, TR-FRET): 700 nM

CCOc1ccc(C(=O)CC(SCc2ccc(OC)cc2)C(=O)O)cc1 (stereo not shown)
Ki (PLCD1 (Homo sapiens, UniProt P51178); ligand displacement, FP): > 1000 µM

Cc1cc(Oc2ncccc2CN2CCN(c3ccccc3Cl)CC2)ccc1-c1c(C)c(=O)[nH]c(=O)n1C
Ki (ADRA2B; ligand displacement, radioligand): 0.0851 µM

Cc1[nH]c(C)c(S(N)(=O)=Nc2ccc(C(F)(F)F)c(Cl)c2)c1C(=O)N1CCC(F)(F)C1 (stereo not shown)
IC50 (DRD3; β-arrestin recruitment, antagonist): 12.8 µM

Cc1cc(OS(=O)(=O)Oc2ccc(C(F)(F)F)cc2)cc(C(=O)NO)c1
Ki (HDAC8; enzyme activity, inhibitor, fluorescence): 2.96 µM

CN(C)c1ncnc2c1ncn2[C@@H]1O[C@H](CO)[C@@H](O)[C@H]1O
EC50 (ADORA3 (Homo sapiens, UniProt P0DMS8, L264M); G protein activation, agonist): 11000 nM

[2H]C1([2H])CCC([2H])([2H])N1C(=O)c1c(C)[nH]c(C)c1S(=O)(=O)Nc1ccc(C(F)(F)F)c(Cl)c1
IC50 (DRD3; β-arrestin recruitment, antagonist): 2.4 µM

CC1=NN(/C(=N/c2nnc(C)s2)Nc2ccc(C)c(C)c2)C(c2cc(F)c(F)c(F)c2F)S1 (stereo not shown)
EC50 (SCTR; cAMP, agonist, TR-FRET): 600 nM

CNc1ncc2c(/C=C/C(=O)N3CCC(OC)CC3)nn(Cc3cccc(C(F)(F)F)c3)c2n1
remaining activity (PKN1 (Homo sapiens, UniProt Q16512); enzyme activity, inhibitor, radiometric; 1 µM): 89%

O=C(NO)c1cc(F)cc(OS(=O)(=O)Oc2ccccc2)c1
Ki (HDAC8; enzyme activity, inhibitor, fluorescence): 0.698 µM

Cc1cc(Oc2ncccc2CN2CCN(c3ccc(F)cc3F)CC2)ccc1-c1c(C)c(=O)[nH]c(=O)n1C
Ki (ADRA2C; ligand displacement, radioligand): 0.0894 µM

Cc1[nH]c(C)c(S(=O)(=O)Nc2ccc(C(F)(F)F)c(Cl)c2)c1C(=O)N1CCC(F)(F)C1
Kb (DRD3; ligand displacement, radioligand; cell membranes): 1700 nM

CC1=NN(/C(=N/c2nnc(C)s2)Nc2ccc(C)c(C)c2)C(c2ccc(C(C)(C)C)cc2)S1 (stereo not shown)
EC50 (SCTR; cAMP, agonist, TR-FRET): 400 nM

C=CC(=O)N1CCC(COCC(=O)N2CCN(c3nc(-c4cnc(N)nc4C(F)F)nc(N4CCOC[C@@H]4C)n3)CC2)CC1
remaining binding (HUNK (Homo sapiens, UniProt P57058); binding, competition with immobilised ligand; 1 µM): 79%

Cc1cc(Oc2ncccc2CN2CCN(c3ccccc3O)CC2)ccc1-c1c(C)c(=O)[nH]c(=O)n1C
Ki (ADRA1A (Homo sapiens, UniProt P35348); ligand displacement, radioligand): 0.448 µM

Cc1[nH]c(C)c(S(=O)(=O)Nc2ccc(C(F)(F)F)c(Cl)c2)c1C(=O)N(C)C
IC50 (DRD3; β-arrestin recruitment, antagonist): 2.4 µM
